Measurements pooled from the literature.
Parts stem from different laboratories: compare values within a part only. Substitutions count along the parent as printed.

Sample 1
Target: ABI1, truncated, D143A, DHFR fusion (Arabidopsis thaliana)
Method: DHFR PCA, deep sequencing
Sample: yeast
Notes: methotrexate growth selection, single substitutions
With: (+)-ABA 0.39 µM
Reference: wild-type fitted maximum
Direction: higher = stronger binding
Starting sequence: PYL1, truncated, DHFR fusion (Arabidopsis thaliana); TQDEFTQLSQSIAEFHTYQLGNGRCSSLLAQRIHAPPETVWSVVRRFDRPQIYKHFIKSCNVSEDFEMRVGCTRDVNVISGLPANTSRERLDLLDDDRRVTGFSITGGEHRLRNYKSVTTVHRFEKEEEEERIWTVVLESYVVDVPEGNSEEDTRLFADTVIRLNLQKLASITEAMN; partner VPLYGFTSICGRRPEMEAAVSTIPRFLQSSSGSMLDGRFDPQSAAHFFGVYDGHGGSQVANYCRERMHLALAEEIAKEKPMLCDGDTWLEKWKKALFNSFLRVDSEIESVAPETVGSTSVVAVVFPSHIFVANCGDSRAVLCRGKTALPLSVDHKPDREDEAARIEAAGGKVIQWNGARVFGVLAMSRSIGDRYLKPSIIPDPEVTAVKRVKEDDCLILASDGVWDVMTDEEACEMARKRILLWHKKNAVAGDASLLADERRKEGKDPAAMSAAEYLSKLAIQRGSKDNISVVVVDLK
Substitution | relative binding score
Y115D | -7.43%
E109A | 1.71%
V62E | -10.7%
E139D | -20%
T17S | 23.6%
R88W | 10.4%
R113Y | -5.13%
F15S | -2.5%
P50T | 9.23%
M68Y | 1.86%

Sample 2
Target: CCND2, cyclin fold, Cln2 fusion (human)
Method: yeast growth competition, sequencing
Sample: yeast
Notes: weak parent motif
Reference: not given
Direction: higher = stronger binding
Starting sequence: BRCA2 docking peptide (human); PSIKRNLLNEFDR
Substitution | normalised enrichment score
I3A | 0.253
I3C | 0.102
N9S | 0.345
L8Y | 0.303
P1V | 0.175
R13P | 0.0478
D12E | 0.134
D12Y | 0.192
N6I | -0.0419
S2H | -0.0215

Sample 3
Target: RNA binding protein fox-1 homolog 2, RRM domain, GST-SBP tag (RBFOX2, Homo sapiens, UniProt O43251-10, residues 100-194)
Method: RNA Bind-n-Seq
Molecule type: RNA
Sample: in vitro
Concentration: 365 nM
Notes: natural RNA segment, single round, ends assumed
Reference: no-protein control
Direction: higher = stronger binding
All sequences stand within: GGGAGUUCUACAGUCCGACGAUC … UGGAAUUCUCGGGUGCCAA
Construct (chain): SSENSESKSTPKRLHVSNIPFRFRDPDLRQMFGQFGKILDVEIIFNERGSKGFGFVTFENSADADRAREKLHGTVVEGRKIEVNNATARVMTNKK
Strand | RBNS enrichment (R)
GAUUCACUGUGCUUUCCUUUCAAAUCCAGUUCUUCCACAGCAACUAGCCCAUAGUCAGUCUGUGUUCUUCCACAGUUGUUUACGGUAGCCUUUUCCUAUCCACUUCCCUU | 0.545
UUGAACAGUGUGAUGAGAAUAGGAAUGUGGUGUUUUAAAGCAGUGUUGCAUUUUAAUCAGUAAUCUACCUGGUGGAUUUGUUUUUAACCAAAAAGAUGAAUUAUCAAUGA | 0.97
UAACUCCUCAUUGUAAACAAACUGUGUAACUGCCCAAAGCAGCACUUAUAAAUCAGCCUAACAUAAGUCUCUCUGAUGUGUUUGUGAUUCUUUCAAAUCCCUAUGUGCCA | 0.727
UUGUAUUGUGUAUGUCAAGAAUCACUCCAUUGUUCGUGUUGCUUUUUGCACUGUUUGUUCCCCGCUGUGUUUUGAGCUAGAACAAGGAGUUGCCUGGGAUUGGGAGCUGU | 1.66
UAGUGUAUACAGAUGAGGGUGUCCGCUGCUGCUUUCCUUCGGAAUCCAGUGCUUCCACAGAGAUUAGCCUGUAGCUUAUAUUUGACAUUCUUCACUGUCUGUUGUUUACC | 0.34
UCCUAGAAUUCUUACUAGUGAAAUCUUACCCAAGUAAAACAAUUUAUUAUUUUGAAUCCAAAUGAAAGCUAUACUGUUUGCUUUCAAUGGUGGCAAAAACUUGCAAAAAG | 0.562
UGCGGGAUUGUCAGUGGCAUUUAGUUGAGAGUUGAGGGGCUUUGGCCUGAAAUAAACUGCAAGUAUUAAGACUGUUGUUGCAAUUUGUGUCUAACAAGCUGUAGCAGGGU | 0.498

Single results of other studies
Molecule | target | test | test system | setting | scale | quantity | result
PhoQ, residues 284 288 289 292 302 303 SMYGEC | PhoP, residues 12 14 15 18 19 NIMAP (Escherichia coli, UniProt P23836) | Sort-seq, refers to: YFP reporter | E. coli | PhoQ-PhoP variant library, with: 10 µM Mg2+ | reference: high Mg2+ state, higher = stronger signaling | fold induction | 0.412

Repeated from above (sample 1):
Substitution | relative binding score
Y115D | -7.43%
E109A | 1.71%
